Measured values gathered from unrelated publications.
A part holds a random share of what one study measured. Changes are numbered by the printed parent chain.

Series 1
Target: Sal-like protein 4, full length isoform A (SALL4, Homo sapiens, UniProt Q9UJQ4, residues 1-1053)
Chain of UniProt Q9UJQ4 (whole entry, looked up): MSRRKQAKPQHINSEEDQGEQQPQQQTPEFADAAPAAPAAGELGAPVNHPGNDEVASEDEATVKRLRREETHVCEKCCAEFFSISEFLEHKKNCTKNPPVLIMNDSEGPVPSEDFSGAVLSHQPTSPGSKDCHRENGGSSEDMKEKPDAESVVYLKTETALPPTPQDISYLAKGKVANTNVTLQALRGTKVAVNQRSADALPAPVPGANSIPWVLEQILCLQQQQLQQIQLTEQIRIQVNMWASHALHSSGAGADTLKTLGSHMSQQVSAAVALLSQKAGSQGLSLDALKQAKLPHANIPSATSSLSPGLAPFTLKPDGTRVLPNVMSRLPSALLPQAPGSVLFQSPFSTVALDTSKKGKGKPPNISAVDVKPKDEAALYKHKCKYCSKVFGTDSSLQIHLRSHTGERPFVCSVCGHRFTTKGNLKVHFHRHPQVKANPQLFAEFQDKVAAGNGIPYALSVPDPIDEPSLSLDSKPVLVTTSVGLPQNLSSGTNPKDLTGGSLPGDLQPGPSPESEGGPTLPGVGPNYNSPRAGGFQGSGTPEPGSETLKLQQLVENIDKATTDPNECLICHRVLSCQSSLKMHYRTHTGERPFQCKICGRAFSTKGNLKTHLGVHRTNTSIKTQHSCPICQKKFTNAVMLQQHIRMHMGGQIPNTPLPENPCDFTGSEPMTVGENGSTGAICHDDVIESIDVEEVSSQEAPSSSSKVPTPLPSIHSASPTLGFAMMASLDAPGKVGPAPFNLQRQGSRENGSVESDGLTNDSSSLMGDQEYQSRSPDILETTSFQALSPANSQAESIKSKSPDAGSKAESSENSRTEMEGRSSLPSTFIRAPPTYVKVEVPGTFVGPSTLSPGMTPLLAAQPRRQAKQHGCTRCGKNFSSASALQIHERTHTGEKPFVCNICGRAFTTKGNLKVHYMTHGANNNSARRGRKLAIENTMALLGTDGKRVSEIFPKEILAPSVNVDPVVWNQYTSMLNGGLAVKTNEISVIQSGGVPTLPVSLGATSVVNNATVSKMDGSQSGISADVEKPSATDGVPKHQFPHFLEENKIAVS
Technique: universal PBM
Form: double-stranded DNA, one strand shown
Matrix: in vitro
Concentration: 600 nM
Setting: 8-mer, flanks averaged, mean of replicates
Direction: higher = stronger binding
Oligonucleotide	E-score
CCCACGGC	-0.309
CATAGTAG	0.115
CTGAGCCA	-0.28
CAACCGGC	-0.202
GCTAGGCC	-0.28
GCAATTTA	0.23
CGGTGTGC	-0.276
CTGTTCGA	-0.0433
CCAATAAC	0.267
ATTCAAAC	0.286
AAGGTTAA	0.157
AATGAGCG	0.128
GCTCTAAA	-0.0777
ATATGGGA	0.213
GGGACCTA	-0.206
AGTAAGGA	0.000875
GTACCGAA	-0.0358
CGCTTGAA	0.107
AACCGTAT	-0.0622
AGGAACCC	-0.323
CTAAGGGC	-0.262
ATGTATGC	0.241
TAATTTGA	0.311

Series 2
Target: Hepatocyte nuclear factor 3-alpha (Foxa1, Mus musculus, UniProt P35582, residues 1-468, full length assumed)
Technique: EMSA with sequencing
Form: double-stranded DNA, one strand shown
Matrix: in vitro
Concentration: 10 and 20 nM
Setting: whole designed probe, mean of two concentrations, ends assumed
Baseline: negative control set to 0
Direction: higher = stronger binding
All sequences stand within: GTGAGCGGTGCCCATTGATGGGGAAC … TTTCACTGGGATCGTGGGGAC
Construct (chain): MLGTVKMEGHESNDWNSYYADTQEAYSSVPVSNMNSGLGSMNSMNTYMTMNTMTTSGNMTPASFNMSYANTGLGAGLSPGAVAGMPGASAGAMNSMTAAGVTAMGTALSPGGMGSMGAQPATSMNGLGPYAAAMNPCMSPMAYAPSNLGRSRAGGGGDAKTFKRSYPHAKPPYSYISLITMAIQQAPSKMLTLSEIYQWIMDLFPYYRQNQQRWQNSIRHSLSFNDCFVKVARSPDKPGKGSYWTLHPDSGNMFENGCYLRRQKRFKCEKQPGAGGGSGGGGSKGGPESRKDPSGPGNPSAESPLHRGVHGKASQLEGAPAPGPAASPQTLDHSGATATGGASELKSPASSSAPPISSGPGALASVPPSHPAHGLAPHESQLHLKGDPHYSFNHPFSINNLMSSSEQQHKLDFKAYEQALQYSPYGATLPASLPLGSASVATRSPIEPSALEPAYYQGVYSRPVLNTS
Oligonucleotide	normalised bound fraction [ratio]
TGTGTGTGCGCGCGCGTGTGTGTGTGTTTTCTTAAGCCGGGCTATTCAAACCCTGCTGCAATTCTCCGGTAAACAATGATTCATGGGGCATAATGCAAATAAACGGATTGCAAACGGCGCGGTTCGCGCACTTTGCAGCCGGCCCGGTGGAGCAGCCAGTGCCGGATTTCTCCCTTTTTTTGCAGATCTGCAG	0.435
TTCCATCGTTTGCTTTTACTGTAAAGTAATATTAAGGAATTAGCCAACAGAAATTACTGAGTGACTGGTATTTACCTCTGATCCTTTGAGGACTAGATTGCATTTCAGCTCAGGTTTTCTGACTAAGGAGATAAAAACATCTCCTGGACTATTTATTTTTTTCCGTGACCTAACCCAAGGACTTTGCACTGGG	0.122
ACAAAAATACTTCAGTAGAGTGTAAAAAAAAATGCACTTGTGGTTCAACTTTTAACAAAAGGCATTCATGCCAGGTATTTCTTACCACCTTGCATGTTTACTTTGTGGTTGTTATCACTGAAACCTCAGAACATTAGTTGTTTCTTAAACAATGTACTGTCTTATTTATTTAAGCTGTTGCCATGTTACTGTT	0.481
AACAGATTAGCTGATCTCTAATGGCCCTAGGAGAAGATCTTGTATTGCTTCAAAATCTTTTCTGATTCTCATCACTCAACCTTCTTGGCTATGTAATCTAAGGAAGCTTTCCTTTTGTTTTCCAGACGTTTGGAAAACAAAATTTTCCAGAGCTGTGCATCTGCCAGGAAATGTTTCTTTTAACCTGATATCA	-0.0465
ATCTTCCCCCTCTTCCTTGCCCCACCAGCTCACCTTCCCGGGTTATTTGCACAAAGGAAAATAAATAAAGCCGGCATTCGTTAACCCTCTTCTGGCGCAAACTGCTGTTTGCTCTGGATCTAACATGGTCCTTTGGCGACGCCAGGCTCCGGGAGAGCAAAGCACCGTGTCAGGGCCATGATCCGGGCTCGCC	0.365
TACTGACTTTATAAGATTTATTTAGTTCCTTTTTTTGACAAAGGTAAAACTTCTTGGACGATTATTAAGGTGCCAGATAAATAGAAGGGGTTAAAATTACACAATTGGCAATGTCTAGCATATAGTAGATCCCCAGTAGGAGGTTGCTTTTGTAACTGTTATTATAATGATCACGAACGCCATCATTCTCACC	0.0452
AGGCACAAGGTATGAATCACTAAGAATCTAGCAGCAGCTCTAGAAGCCTCCAAAGATAGGGGGTGGAGTATTGCACTTCCCCAACAGGGGGACGTAAATATGAAAGAACAGTGGATGGCCTAAATCAGTATGTGTCACTCTTTGTAAAGAGCCACAAGTGTTTGACTAGGGAAAAAGGAAAAGAGGCGAGAGT	0.017
CTTCCCACAGCCGACCTCCTCCGCCTGTCCCTCCCGCCACCCCGCCTGTCCCCCGCCTTTCCAGCAGCCTCCAAGTGGCAGGCTGGGTGCTGTGTCAATAAGGGTGTGTGCCCTGCCAGGTGCACGGGGCGGGTCGGGAACCGGTTACCTGGCGGGCGGGCGAGGCGCACCACCTGGCTCGTGCCTCACCGCG	0.284

Series 3
Target: CCNE2, cyclin fold, Cln2 fusion (human)
Technique: yeast growth competition, sequencing
Matrix: yeast
Setting: weak parent motif
Baseline: not given
Direction: higher = stronger binding
Starting sequence: SLBP docking peptide (human); ARYKRKLLINDFG
Variant	normalised enrichment score
ARYKRKGLINDFG [L7G]	0.584
ARYGRKLLINDFG [K4G]	-0.193
ARYKRKLLINHFG [D11H]	0.422
ARYVRKLLINDFG [K4V]	0.0101
ARTKRKLLINDFG [Y3T]	0.353
ARYKRKLLANDFG [I9A]	0.303
ARYKKKLFINDFG [R5K L8F]	0.587
ARYKRKLLINDFY [G13Y]	1.18
ARYKRKDLINDFG [L7D]	0.394
ARYKRKLLINDVG [F12V]	0.304
ARYKRKLLCNDFG [I9C]	0.727
ARDKRKLLINDFG [Y3D]	0.827
ARYKRKLLINRFG [D11R]	1.22
ARYHRKLLINDFG [K4H]	0.942
ARYKRKLLWNDFG [I9W]	1.23
ARYKRKLFINDFG [L8F]	2.11
ARYKRKLHINDFG [L8H]	0.239
ARYQRKLLINDFG [K4Q]	0.718

Series 4
Target: Ras GTPase-activating protein-binding protein 1, full length (G3BP1, Homo sapiens, UniProt Q13283)
Chain of UniProt Q13283 (whole entry, looked up): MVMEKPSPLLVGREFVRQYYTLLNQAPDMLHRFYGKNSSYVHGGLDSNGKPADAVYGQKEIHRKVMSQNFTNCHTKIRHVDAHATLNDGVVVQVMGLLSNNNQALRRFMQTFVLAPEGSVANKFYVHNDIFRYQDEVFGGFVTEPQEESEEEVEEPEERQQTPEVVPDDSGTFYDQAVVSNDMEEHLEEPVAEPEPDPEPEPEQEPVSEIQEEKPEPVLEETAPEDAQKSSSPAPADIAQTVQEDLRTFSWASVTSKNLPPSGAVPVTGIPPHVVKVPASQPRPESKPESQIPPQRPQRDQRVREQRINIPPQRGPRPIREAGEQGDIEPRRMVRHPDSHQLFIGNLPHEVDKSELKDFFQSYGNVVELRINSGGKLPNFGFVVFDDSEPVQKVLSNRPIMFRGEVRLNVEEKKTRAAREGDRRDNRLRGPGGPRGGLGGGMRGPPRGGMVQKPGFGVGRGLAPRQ
Technique: RNA Bind-n-Seq
Form: RNA
Matrix: in vitro
Concentration: 200 nM
Setting: whole 134-nt RNA, ends assumed
With: 150 mM LiCl
Baseline: input library
Direction: higher = stronger binding
All molecules: 7-deaza-guanosine replaces G
All sequences stand within: GGGAGUUCUACAGUCCGACGAUC … UGGAAUUCUCGGGUGUCAAGG
Oligonucleotide	log2 enrichment
UUCAACAACUAGUACUGCUUCAAAUUAUCCAGAUGUGUUAACAAGGCCUUCUCUUCAUCGGAGCCAUCUGAAUUUUUCCAUGUUGGAAUC	1.2
AAGUCCUGUGCUACACAUCGUAUGUACCGAAUCGGGGUUUUUGGGGUGGGGAGGGGAAAGUAUUAUGUUACGCCGUUCGGAUCUGCACUU	0.554
AGGACGUGCAGAACUUCCUCUCUGACUGCACGAUUCAUGAUGGGGCCGCAGGUGUCCAUUUCAUCUACACUAGAGAGGGCAGGCAGAGUG	0.623
GUCCUGUGCUACACAUCGUAUGUACCGAAUCGGAAAAAGGGGAAAAAGGGGAAAAAGGAAAGUAUUAUGUUACGCCGUUCGGAUCUGCAC	-0.155
UGCUGUGCAGCGGCAUCGGCCCACUGUGGUGGAAUGUCUACGGGAAACUGAUGCCUCCCUCAGCCGGUGAGCAGUGAUAGAGGGGACAGG	-0.825
CAAGUCCUGUGCUACACAUCGUAUGUACCGAAUCGGAAAAAGGUUUGGAAAAAGGAAAGUAUUAUGUUACGCCGUUCGGAUCUGCACUUC	-1.32
CUCAAGUCCUGUGCUACACAUCGUAUGUACCGAAUCGGGAAGGAAGGGAAGGGGAAAGUAUUAUGUUACGCCGUUCGGAUCUGCACUUCC	0.285
UCCUCAAGUCCUGUGCUACACAUCGUAUGUACCGAAUCGGGCGGCGGGCGGGAAAGUAUUAUGUUACGCCGUUCGGAUCUGCACUUCCAG	1.05
CAAGUCCUGUGCUACACAUCGUAUGUACCGAAUCGGAAAGGGGAAAGGGGAAAGGGAAAGUAUUAUGUUACGCCGUUCGGAUCUGCACUU	-0.332
CUCAAGUCCUGUGCUACACAUCGUAUGUACCGAAUCGGAGGUUUUUUUGGUGGAAAGUAUUAUGUUACGCCGUUCGGAUCUGCACUUCCA	-0.239
CAAGUCCUGUGCUACACAUCGUAUGUACCGAAUCGGGAAAAAGGGAGGGAAAGGGAAAGUAUUAUGUUACGCCGUUCGGAUCUGCACUUC	-0.303

Repeated from above (series 1):
Oligonucleotide	E-score
CTAAGGGC	-0.262
GTACCGAA	-0.0358
CGGTGTGC	-0.276
